{"data": "Results collected from several papers", "STS": "Steryl-sulfatase (STS, Homo sapiens, UniProt P08842)", "note": "Protocols differ between the studies behind these lines. “And” joins repeats or separate records; there may be more than shown. ± gives the spread as reported.", "UniProt P08842, sequence (whole entry, looked up)": "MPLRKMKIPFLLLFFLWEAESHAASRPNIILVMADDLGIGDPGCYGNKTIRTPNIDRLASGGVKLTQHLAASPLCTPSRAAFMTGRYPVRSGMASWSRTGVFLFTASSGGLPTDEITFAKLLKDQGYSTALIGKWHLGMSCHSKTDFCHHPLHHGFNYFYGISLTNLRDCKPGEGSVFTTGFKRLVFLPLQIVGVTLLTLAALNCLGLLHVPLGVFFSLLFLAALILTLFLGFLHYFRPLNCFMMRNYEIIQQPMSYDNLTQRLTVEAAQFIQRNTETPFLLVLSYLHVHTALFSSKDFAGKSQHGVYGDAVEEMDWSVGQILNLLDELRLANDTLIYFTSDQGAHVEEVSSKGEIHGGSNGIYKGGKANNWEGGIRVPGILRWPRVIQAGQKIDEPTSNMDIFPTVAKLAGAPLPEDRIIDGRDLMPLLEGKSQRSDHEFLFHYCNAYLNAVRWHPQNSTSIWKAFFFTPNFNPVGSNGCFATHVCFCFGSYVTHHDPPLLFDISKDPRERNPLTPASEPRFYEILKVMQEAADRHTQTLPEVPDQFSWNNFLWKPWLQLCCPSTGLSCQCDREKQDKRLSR", "UniProt P07374, sequence (whole entry, looked up)": "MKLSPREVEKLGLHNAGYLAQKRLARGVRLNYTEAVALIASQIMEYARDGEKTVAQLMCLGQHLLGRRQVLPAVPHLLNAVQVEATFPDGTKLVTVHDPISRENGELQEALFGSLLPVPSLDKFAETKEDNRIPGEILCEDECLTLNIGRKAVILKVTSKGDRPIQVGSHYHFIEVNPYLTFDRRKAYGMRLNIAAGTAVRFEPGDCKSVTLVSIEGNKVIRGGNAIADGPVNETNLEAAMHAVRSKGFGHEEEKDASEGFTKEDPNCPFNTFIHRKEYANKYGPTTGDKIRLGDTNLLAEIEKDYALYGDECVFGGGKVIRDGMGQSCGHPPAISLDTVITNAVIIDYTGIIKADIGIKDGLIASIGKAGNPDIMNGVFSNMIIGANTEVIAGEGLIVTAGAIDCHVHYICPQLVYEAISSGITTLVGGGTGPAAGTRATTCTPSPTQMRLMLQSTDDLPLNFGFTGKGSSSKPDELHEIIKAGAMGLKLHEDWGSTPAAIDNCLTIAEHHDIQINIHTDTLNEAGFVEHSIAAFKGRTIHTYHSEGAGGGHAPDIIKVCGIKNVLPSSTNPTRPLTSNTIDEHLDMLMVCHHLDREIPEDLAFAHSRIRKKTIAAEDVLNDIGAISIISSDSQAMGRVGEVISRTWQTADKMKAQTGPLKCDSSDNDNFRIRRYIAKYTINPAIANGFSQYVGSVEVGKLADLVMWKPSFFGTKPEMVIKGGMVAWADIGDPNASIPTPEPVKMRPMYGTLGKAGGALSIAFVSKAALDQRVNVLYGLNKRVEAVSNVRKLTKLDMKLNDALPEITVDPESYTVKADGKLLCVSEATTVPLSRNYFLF", "UniProt Q13535, sequence (whole entry, looked up)": "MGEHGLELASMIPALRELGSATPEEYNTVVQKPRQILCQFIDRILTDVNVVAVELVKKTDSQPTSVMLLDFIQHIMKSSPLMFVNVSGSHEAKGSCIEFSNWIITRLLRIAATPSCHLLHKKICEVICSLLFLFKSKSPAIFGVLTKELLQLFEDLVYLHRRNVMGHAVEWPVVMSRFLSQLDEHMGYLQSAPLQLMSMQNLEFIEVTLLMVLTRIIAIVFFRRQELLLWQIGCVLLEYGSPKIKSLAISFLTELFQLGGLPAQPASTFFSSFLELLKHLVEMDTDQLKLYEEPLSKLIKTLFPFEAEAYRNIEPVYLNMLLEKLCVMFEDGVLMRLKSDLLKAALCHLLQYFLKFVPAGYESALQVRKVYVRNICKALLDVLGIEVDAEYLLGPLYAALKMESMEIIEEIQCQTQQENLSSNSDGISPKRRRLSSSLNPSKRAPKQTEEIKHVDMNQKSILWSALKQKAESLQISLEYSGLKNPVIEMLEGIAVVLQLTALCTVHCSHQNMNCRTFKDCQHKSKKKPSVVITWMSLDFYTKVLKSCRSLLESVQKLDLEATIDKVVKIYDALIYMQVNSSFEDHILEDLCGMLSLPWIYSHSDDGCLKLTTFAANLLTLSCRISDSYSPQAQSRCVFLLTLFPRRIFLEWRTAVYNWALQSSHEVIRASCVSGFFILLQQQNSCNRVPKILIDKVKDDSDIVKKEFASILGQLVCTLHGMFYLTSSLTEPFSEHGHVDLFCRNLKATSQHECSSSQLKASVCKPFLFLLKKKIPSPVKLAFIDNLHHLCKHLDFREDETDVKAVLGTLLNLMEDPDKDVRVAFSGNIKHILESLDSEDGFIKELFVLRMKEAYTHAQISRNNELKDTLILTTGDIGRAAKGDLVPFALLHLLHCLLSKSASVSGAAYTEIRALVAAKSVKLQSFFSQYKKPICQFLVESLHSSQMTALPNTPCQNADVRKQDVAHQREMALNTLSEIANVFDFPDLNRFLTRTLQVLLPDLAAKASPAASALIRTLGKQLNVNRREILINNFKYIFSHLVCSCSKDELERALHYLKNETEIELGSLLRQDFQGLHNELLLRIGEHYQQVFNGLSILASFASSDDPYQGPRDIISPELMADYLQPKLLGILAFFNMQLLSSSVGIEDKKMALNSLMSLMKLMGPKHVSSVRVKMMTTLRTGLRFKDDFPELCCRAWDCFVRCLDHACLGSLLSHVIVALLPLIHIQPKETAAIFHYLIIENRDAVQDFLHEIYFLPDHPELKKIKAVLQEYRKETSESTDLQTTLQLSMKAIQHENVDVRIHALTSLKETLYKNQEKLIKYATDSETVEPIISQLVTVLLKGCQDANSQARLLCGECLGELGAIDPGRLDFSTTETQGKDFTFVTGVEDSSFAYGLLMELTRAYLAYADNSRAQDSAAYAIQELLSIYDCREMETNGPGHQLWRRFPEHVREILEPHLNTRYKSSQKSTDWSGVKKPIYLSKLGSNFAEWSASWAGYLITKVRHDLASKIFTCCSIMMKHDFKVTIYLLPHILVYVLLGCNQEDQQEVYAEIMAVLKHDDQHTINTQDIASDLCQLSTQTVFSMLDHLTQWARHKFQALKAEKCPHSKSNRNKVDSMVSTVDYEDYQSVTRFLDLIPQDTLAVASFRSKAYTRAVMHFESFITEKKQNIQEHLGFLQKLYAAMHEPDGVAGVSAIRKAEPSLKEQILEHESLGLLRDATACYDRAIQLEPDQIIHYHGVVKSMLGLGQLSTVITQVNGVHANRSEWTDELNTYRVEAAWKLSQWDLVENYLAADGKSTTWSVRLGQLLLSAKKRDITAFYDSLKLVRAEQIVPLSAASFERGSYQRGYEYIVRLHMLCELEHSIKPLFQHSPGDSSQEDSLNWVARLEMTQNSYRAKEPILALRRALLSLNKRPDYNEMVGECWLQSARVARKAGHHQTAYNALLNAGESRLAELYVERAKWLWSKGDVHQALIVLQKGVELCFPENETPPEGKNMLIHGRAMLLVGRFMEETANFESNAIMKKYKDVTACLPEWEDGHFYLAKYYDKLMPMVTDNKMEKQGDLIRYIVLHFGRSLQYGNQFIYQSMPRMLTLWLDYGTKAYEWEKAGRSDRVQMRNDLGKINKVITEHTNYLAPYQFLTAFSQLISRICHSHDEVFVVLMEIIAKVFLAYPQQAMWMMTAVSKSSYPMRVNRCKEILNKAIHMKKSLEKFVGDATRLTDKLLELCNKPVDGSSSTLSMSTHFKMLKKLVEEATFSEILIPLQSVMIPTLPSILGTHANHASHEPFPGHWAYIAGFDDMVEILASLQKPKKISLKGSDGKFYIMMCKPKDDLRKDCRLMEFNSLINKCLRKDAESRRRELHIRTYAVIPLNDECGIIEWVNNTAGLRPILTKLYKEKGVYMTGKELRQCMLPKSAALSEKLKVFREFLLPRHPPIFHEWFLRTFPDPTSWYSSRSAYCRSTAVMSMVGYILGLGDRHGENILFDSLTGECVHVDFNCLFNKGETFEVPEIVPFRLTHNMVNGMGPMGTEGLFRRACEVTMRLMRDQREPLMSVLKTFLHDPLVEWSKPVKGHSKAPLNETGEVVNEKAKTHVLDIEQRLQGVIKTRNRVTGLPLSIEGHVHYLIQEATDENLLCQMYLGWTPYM", "UniProt P05186, sequence (whole entry, looked up)": "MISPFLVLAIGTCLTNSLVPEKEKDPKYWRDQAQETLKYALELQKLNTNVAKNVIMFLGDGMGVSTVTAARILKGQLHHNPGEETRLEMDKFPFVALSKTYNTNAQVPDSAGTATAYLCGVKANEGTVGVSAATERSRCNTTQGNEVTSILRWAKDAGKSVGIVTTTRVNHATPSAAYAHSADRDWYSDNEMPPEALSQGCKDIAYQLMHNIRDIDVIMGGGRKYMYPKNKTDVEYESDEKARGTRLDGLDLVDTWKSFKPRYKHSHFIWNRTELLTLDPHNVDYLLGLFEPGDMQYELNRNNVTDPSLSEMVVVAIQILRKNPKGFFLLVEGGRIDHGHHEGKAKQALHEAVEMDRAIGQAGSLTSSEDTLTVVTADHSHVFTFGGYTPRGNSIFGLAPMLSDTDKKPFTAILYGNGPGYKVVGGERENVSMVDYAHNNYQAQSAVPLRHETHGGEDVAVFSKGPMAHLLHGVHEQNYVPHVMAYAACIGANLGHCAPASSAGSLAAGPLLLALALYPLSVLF", "UniProt Q7Z418, sequence (whole entry, looked up)": "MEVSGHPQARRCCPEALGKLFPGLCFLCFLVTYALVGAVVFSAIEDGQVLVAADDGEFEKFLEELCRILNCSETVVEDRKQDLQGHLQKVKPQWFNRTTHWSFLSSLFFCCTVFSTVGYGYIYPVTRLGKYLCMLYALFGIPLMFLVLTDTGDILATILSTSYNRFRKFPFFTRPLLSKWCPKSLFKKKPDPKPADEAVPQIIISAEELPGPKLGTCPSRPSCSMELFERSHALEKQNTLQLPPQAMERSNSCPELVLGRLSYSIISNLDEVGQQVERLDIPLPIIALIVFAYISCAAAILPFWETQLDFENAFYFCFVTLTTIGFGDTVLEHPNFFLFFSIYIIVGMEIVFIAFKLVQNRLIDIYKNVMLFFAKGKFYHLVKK"}
{"SMILES": "Cc1cnc(CNc2cc(N3CCN(S(=O)(=O)c4ccc(F)cc4)CC3)ccc2[N+](=O)[O-])o1", "target": "Kir1 channel protein (Aedes aegypti, UniProt L0EQS9)", "assay": "ion flux, inhibitor, fluorescence", "IC50": "147 nM"}
{"SMILES": "N#Cc1ccc(C(Cc2ccc(OS(N)(=O)=O)c(Br)c2)n2cncn2)cc1 (racemic)", "target": "STS", "assay": "enzyme activity, inhibitor", "IC50": "593 ± 6 nM"}
{"SMILES": "COc1cc(C2C(C#N)=C(N)Oc3c2c(=O)[nH]c2ccccc32)ccc1OCc1cn(Cc2ccc(F)cc2)nn1 (stereo not drawn)", "target": "Alpha-glucosidase MAL12 (MAL12, Saccharomyces cerevisiae S288c, UniProt P53341)", "assay": "enzyme activity", "IC50": "15900 ± 200 nM"}
{"SMILES": "CC(=O)SCC(=O)CCCCCNCCCN", "target": "Polyamine deacetylase HDAC10 (hdac10, Danio rerio, UniProt F1QCV2)", "assay": "enzyme activity, inhibitor", "conditions": "with preincubation", "IC50": "180 nM"}
{"SMILES": "[Cl-].[Cl-].[Cl-].[Gd+3]", "target": "human MMP-2 catalytic domain", "assay": "inhibitor", "conditions": "pH 7.5, 37 °C, 45 min preincubation, added: DQ-gelatin", "IC50": "8400 ± 220 nM"}
{"SMILES": "O=c1cc(-c2cccc(O)c2)oc2ccccc12", "target": "Cytochrome P450 2B1 (Cyp2b1, Rattus norvegicus, UniProt P00176)", "assay": "enzyme activity, inhibitor", "test system": "supersomes", "conditions": "added: pentoxyresorufin 5 µM", "IC50": "> 50000 nM"}
{"SMILES": "N#Cc1ccc(C(Cc2ccc(OS(N)(=O)=O)cc2)n2cncn2)cc1 (racemic)", "target": "STS", "assay": "enzyme activity, inhibitor", "IC50": "3520 ± 625 nM"}
{"SMILES": "CC[C@H](C)C(=O)O[C@H]1CCC=C2C=C[C@H](C)[C@H](CC[C@@H]3C[C@@H](O)CC(=O)O3)[C@H]21", "target": "Potassium channel subfamily K member 18 (KCNK18, Homo sapiens, UniProt Q7Z418)", "assay": "ion flux, inhibitor", "IC50": "9240 nM"}
{"SMILES": "CN1CCN(CCC(=O)Nc2ccc3c(c2)Sc2cccc(-c4cc(=O)cc(N5CCOCC5)o4)c2S3)CC1", "target": "Serine/threonine-protein kinase ATR (ATR, Homo sapiens, UniProt Q13535)", "assay": "enzyme activity, inhibitor", "IC50": "> 100000 nM"}
{"SMILES": "O=C(Nc1nc2ccc(F)cc2s1)[C@H](Cc1c[nH]cn1)NC(=O)[C@@H]1O[C@H]1C(=O)O", "target": "Calpain-1 catalytic subunit (CAPN1, Homo sapiens, UniProt P07384)", "assay": "inhibitor, FRET", "conditions": "20 min", "IC50": "> 1000 nM"}
{"SMILES": "FC(F)(F)c1ccccc1N=C(S)N1CCc2ccccc2C1", "target": "Urease (Canavalia ensiformis, UniProt P07374)", "assay": "enzyme activity, inhibitor, absorbance", "IC50": "26500 nM"}
{"SMILES": "O=C(NNC(=O)c1ccc(CNS(=O)(=O)c2ccc(F)c(Cl)c2)cc1)c1ccccc1", "target": "Glutamate NMDA receptor; Grin1/Grin2a (Grin1/Grin2a, Rattus norvegicus, UniProt P35439+Q00959, V783D)", "assay": "ion current, two-electrode voltage clamp", "conditions": "oocytes", "IC50": "270 nM"}
{"SMILES": "COc1ccc(C(=O)NC2(C(=O)O)Cc3ccccc3C2)cc1OCCc1cccc(C)c1", "target": "Lysophosphatidic acid receptor 1 (LPAR1, Homo sapiens, UniProt Q92633)", "assay": "calcium flux, antagonist, FLIPR", "test system": "primary SSc dermal fibroblasts", "conditions": "added: LPA", "IC50": "237 nM"}
{"SMILES": "CCc1oc2ccc(F)cc2c1C(=O)c1cc(Br)c(O)c(Br)c1", "target": "Solute carrier family 22 member 12 (SLC22A12, Homo sapiens, UniProt Q96S37)", "assay": "transporter uptake, inhibitor, radiometric", "conditions": "oocytes", "IC50": "6 nM"}
{"SMILES": "C#Cc1cccc(Nc2ncnc3cc(OC)c(OCCCCCCC(=O)NO)cc23)c1", "target": "HDAC (Lucilia cuprina egg nuclear extract)", "assay": "enzyme activity, inhibitor, fluorometric", "IC50": "32 nM and 31.7 nM"}
{"SMILES": "COc1cc(/C=N/NC(=O)c2nnn(Cc3nc4ccccc4[nH]3)c2C)ccc1O", "target": "DNA", "assay": "DNA binding, methyl green displacement", "IC50": "42000 ± 2100 nM"}
{"SMILES": "CCn1c(=O)/c(=C2\\Sc3cc(Cl)ccc3N2C)s/c1=C\\c1scc[n+]1Cc1ccccc1", "target": "Heat shock 70 kDa protein 1A, with Bag1 (HSPA1A, Homo sapiens, UniProt P0DMV8)", "assay": "protein-protein interaction, inhibitor, flow cytometry protein interaction", "conditions": "added: labeled Bag1 50 nM", "IC50": "600 ± 100 nM"}
{"SMILES": "O=c1cc(-c2cccc3ccccc23)[nH][nH]1", "target": "Alkaline phosphatase, tissue-nonspecific isozyme (ALPL, Homo sapiens, UniProt P05186)", "assay": "enzyme activity, inhibitor, luminescence", "conditions": "added: CDP-star substrate, 100 mM DEA", "IC50": "3240 nM"}
